# Measurements from different studies.
# Each numbered part is a random draw from the data of one study; scales do not carry over between parts.

# Study 1
# Target: Histone acetyltransferase KAT6A, winged helix 2, GST fusion (KAT6A, Homo sapiens, UniProt Q92794, residues 85-181)
# Method: protein binding microarray
# Molecule type: double-stranded DNA, one strand shown
# Matrix: in vitro
# Tested at: not given
# Setting: 8-mer, flanks averaged, mean of 2 arrays, mostly near background
# Reference: not given
# Reading: higher = stronger binding
# Target sequence (chain): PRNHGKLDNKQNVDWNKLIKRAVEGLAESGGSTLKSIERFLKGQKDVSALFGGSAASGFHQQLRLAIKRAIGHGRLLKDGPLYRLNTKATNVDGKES
Strand,E-score
CGCCCAAC,0.139
CGCTGAAA,-0.113
CTAATAGC,-0.0993
GCCTTTGA,-0.0574
ATCATAGA,0.153
GCCCAGCC,0.222
GCGGCCCC,0.162
CATAGAAG,0.0651
CTCAGTGC,0.0731
ACTTGCCG,0.0949
TATACATA,-0.136
CTCAGGAA,0.0639
ACACGTCC,-0.223
CTAAGCGC,0.0469
ATTAGCTG,0.0149
CATGTTAC,-0.0208
ACATTACG,-0.139
CGGCTATA,-0.00546
CGGAGGTC,0.105
ACAGAGGG,-0.07
AGAGCTCG,0.0988

# Study 2
# Target: PABPC1L2, full length, GST fusion (mouse, UniProt A0ABA7IW68)
# Method: RNAcompete
# Molecule type: RNA
# Matrix: in vitro
# Tested at: 20 nM
# Setting: 7-mer, probes averaged, single round
# Reference: mean of 7-mers
# Reading: higher = stronger binding
# Target sequence (chain): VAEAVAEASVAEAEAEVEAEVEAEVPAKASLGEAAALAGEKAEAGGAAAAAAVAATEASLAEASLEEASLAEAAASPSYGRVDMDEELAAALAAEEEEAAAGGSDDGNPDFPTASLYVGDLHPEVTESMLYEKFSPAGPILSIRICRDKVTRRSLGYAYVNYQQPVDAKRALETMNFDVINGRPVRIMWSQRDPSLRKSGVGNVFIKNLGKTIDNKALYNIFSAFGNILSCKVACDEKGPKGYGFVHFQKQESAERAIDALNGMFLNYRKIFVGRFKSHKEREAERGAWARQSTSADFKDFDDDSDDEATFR
Strand,7-mer Z-score
CGUCUAU,-0.345
ACCACCU,-0.215
ACCGAGC,-0.117
AGUCUAU,-0.333
CUAGAGG,0.0605
AAAUGGG,1.64
AAACGAA,1.36
GACUGCA,-0.0283
CCCGACG,-0.371
UGUGGAG,0.207
AACGUUC,-0.313
GGUUGUU,-0.42
CAUCCUC,-0.329
UUCCUUA,-0.393
CCGUCCU,-0.494
GUUGCCU,-0.367
ACUCAGG,-0.0428
GUCACGA,0.0315
ACAAGGC,0.338
ACCAAUG,-0.0246
CAAGCAU,-0.137
GAGAUUG,-0.0554
UCUAUUA,-0.291
CAGUGAU,-0.26

# Study 3
# Target: Sal-like protein 4, full length isoform B (SALL4, Homo sapiens, UniProt Q9UJQ4-2, residues 1-616)
# Method: universal PBM
# Molecule type: double-stranded DNA, one strand shown
# Matrix: in vitro
# Tested at: not given
# Setting: 8-mer, flanks averaged, mean of replicates
# Reading: higher = stronger binding
# Target sequence (chain): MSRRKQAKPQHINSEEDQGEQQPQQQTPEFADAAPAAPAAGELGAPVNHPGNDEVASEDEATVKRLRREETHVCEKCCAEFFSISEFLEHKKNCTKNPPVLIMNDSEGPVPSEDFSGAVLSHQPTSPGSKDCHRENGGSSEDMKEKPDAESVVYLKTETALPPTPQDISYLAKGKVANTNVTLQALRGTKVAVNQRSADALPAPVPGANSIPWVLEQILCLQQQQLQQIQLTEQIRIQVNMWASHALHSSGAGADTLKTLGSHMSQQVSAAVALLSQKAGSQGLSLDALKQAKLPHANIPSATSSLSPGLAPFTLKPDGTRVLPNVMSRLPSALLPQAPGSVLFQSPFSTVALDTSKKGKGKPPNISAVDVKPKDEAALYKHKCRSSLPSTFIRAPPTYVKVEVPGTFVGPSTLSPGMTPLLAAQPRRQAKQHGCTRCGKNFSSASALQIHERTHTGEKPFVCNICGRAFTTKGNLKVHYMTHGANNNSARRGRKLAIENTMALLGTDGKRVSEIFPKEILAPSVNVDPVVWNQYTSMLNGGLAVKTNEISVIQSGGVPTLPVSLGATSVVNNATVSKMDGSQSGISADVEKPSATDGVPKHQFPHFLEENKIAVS
Strand,E-score
ATCTCGCA,0.126
GTGAATAA,0.227
TCGGTTCA,-0.0563
GCACCATA,0.0895
GCTGGGAA,-0.181
AGACATCA,0.0554
ACTATCCG,0.05
CTTACTTA,0.126
CAGTGAAA,0.0538
AAATGGCA,0.129
TCCCCGGA,-0.319
ATAGATCG,0.0556
AAAAAAAT,0.365
GGTTACAC,-0.0348
GTTGTGCA,-0.133
GCAAAACA,0.0678

# Study 4
# Target: RNA binding protein fox-1 homolog 2, RRM domain, GST-SBP tag (RBFOX2, Homo sapiens, UniProt O43251-10, residues 100-194)
# Method: RNA Bind-n-Seq
# Molecule type: RNA
# Matrix: in vitro
# Tested at: 365 nM
# Setting: natural RNA segment, single round, ends assumed
# Reference: no-protein control
# Reading: higher = stronger binding
# Residues (chain): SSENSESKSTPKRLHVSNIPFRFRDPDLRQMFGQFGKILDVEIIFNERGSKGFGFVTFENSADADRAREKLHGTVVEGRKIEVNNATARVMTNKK
Strand,RBNS enrichment (R)
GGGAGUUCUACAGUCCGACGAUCAUCCCGCAACCAGUCAGCGCACCAGUGGUCUCCCGGUGUGAUUUUUUUUUUUUUUAAUUUCAGUUGUUUGUAAUAAGUAGAAUACACUACUGUAAACAUACGACCUUUGUUGGAAUUCUCGGGUGCCAA,1.12
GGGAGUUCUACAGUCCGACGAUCAUACCUGUAACAAUCAGAAAUUCUUAAUCGCUUGUGGUAUGGUUUUAAUUCUAGAUGUUUUAUCUCUCUGGGAGUAUAGUUUAUAGAAACACAAAGUACUUGAUUUCCUGUGGAAUUCUCGGGUGCCAA,0.616
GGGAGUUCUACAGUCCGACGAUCUUAAUUUUAUUUUAUACAAUGUGUAGACAGUUCCCUGUUCUCUGCAUUUAGAAGUAUACACAAUAUAAAUCUGUUAAUUCUGUAAGUAAUUUUUAUAAUUAUGAUGUAACUGGAAUUCUCGGGUGCCAA,0.627
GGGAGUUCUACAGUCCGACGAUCGUCUUCACUGUGACCAAUCGGAGUCCCUGCUUGCUUGUGAAGAAGGGGCUUUUGUACCUUGUUGGAGAUGCCACCUCAGAAGUUCACACUGUGCAGGAAAAAGGUUUUAUUGGAAUUCUCGGGUGCCAA,1.42
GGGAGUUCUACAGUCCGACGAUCUGCUGAUCACCCUCCUCCCAAAAAGCAAGAGCUUGUUUAUGGCUGAGGAAUCGGCGGAUUGUCUGAAUGACACAUAUACAGAGCCCCCACGGAUUUCUGCACACUCUGGGUGGAAUUCUCGGGUGCCAA,0.253
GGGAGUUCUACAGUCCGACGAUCCUUGCUUGUCUUUAAAUCUUCAAUAUGAAGGACUAUUAAUUCCAAGAUUAAAAGUUCAUAUAUAGGCUAAAGAUGUAACUAGGCCAUUUGUAUUUGUAUUCCCUUUUAUUUGGAAUUCUCGGGUGCCAA,0.323
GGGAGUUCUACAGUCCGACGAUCAGACCACGCCCGUCCUGCCUGUGGCGCCGUCUCCAGGGGCUGCUUCCUCCUGGAAAUUGACGAGGGGUGUCUUGGGCAGAGCUGGCUCUGAGCGCCUCCAUCCAAGGCCAUGGAAUUCUCGGGUGCCAA,0.399
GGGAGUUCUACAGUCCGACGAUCUUAAAUAAAUGAAUGUCUAUACUUUUUAAGGAAAAGAGAAAAUACCAUGUCACAGAAAAGGUGAAACUAUUAGAUGCUGUUUAGAAAGCAUUUAUCUUGCAUUUCUUUAUUGGAAUUCUCGGGUGCCAA,1.5

# Study 5
# Target: Interferon regulatory factor 7, full length, phosphomimetic (IRF7, Homo sapiens, UniProt Q92985, residues 1-503, S101K/S471D/S472D/S475D/S476D/S477D/S483D/S484D/S487D)
# UniProt Q92985, sequence (whole entry, unmodified, looked up): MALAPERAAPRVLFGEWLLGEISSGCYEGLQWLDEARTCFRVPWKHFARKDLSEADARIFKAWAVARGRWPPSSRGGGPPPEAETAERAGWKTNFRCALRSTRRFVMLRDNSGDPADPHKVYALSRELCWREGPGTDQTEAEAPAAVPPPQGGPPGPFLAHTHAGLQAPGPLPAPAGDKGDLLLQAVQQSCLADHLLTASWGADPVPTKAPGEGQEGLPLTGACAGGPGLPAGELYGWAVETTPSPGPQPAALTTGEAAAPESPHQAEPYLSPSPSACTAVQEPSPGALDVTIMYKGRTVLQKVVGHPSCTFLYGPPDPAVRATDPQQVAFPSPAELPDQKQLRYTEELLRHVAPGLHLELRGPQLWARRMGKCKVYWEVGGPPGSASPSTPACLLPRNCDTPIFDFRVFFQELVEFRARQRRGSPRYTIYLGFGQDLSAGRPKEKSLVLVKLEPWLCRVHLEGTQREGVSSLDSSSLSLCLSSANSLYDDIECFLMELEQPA
# Method: protein-binding microarray
# Molecule type: double-stranded DNA, one strand shown
# Matrix: in vitro
# Tested at: 250 nM
# Setting: 60-bp whole probe
# Together with: salmon DNA 0.4 mg/ml
# Reference: random background probes
# Reading: higher = stronger binding
# All sequences stand within: GCCTAGCAC … GTCTTGATTCGCTTGACGCTGCTG
Strand,log fluorescence
GTCGAACTGGGGTATCGAGACGTGCTA,-0.062 z-score
CTAATTAGAATTTTCATTAAGTGCTAG,1.92 z-score
GACGGACTGCTACTGGTGACGTGCTAG,-0.751 z-score
GAGGGTTTCGACACTGGGGACGTGCTA,1.97 z-score
TCAATTTTCGTTTTTATACTGTGCTAG,7.31 z-score
AACGGTCTCCTTATCCTGACGTGCTAG,0.464 z-score
ATTGCTTTCTCTTTCACTACGTGCTAG,1.54 z-score
GACGGTTTCCTACTGGTGACGTGCTAG,1.24 z-score
GACGGCATCGGGTTTCGGGACGTGCTA,0.958 z-score
CCCTTACCGCATATCGGGGTGTGCTAG,0.491 z-score
GACGATATCGGACTGGAGACGTGCTAG,0.0637 z-score
CTCTGCTTGTATCTGGGTTCGTGCTAG,0.177 z-score
GGCGGACTGCTTCTCCTGACGTGCTAG,-0.79 z-score
TCATATTTGTCCCTATTACTGTGCTAG,1.39 z-score
GACGGTCTCCTTATCCTGCCGTGCTAG,0.113 z-score
GACCGTATCGGTTTCGGGACGTGCTAG,4.95 z-score
TTAGGTTCCGGTTTCGGTAAGTGCTAG,8.63 z-score
CACGGTATCCTTCTCCTGACGTGCTAG,0.129 z-score
TTAGGTCTTCTTCTCCTTTAGTGCTAG,0.669 z-score
